# Assay results from different studies.
# Protocols differ between the studies behind these lines. Several values in a cell are separate wells, animals, samples, runs or records. Numbers after ± are the reported error.
SMILES,assay,test system,setting,scale,measurement,value
CNc1ccc(-c2nc3ccc(O)cc3s2)cc1 [carbon-11 labelled],ex vivo biodistribution,"APP/PS1 mouse, AD model, bladder","intravenous, 30 min",,SUV,11.4 ± 7.54
COc1cc(Nc2ncc3c(n2)-c2ccc(Cl)cc2C(c2c(F)cccc2OC)=NC3)ccc1C(=O)O,"item: Fatigue, all grades","cancer patients, phase 1/2","oral, dose not given, with: pembrolizumab",,patients with adverse event,58%
CC[C@H](C)[C@H](NC(=O)[C@H](Cc1ccccc1)NC(=O)[C@H](CCC(=O)O)NC(=O)[C@H](CCCCNC(=O)COCCOCCNC(=O)COCCOCCNC(=O)CC[C@H](NC(=O)CCCCCCCCCCCCCCCCC(=O)O)C(=O)O)NC(=O)[C@H](C)NC(=O)[C@H](C)NC(=O)[C@H](CCC(N)=O)NC(=O)CNC(=O)[C@H](CCC(=O)O)NC(=O)[C@H](CC(C)C)NC(=O)[C@H](Cc1ccc(O)cc1)NC(=O)[C@H](CO)NC(=O)[C@H](CO)NC(=O)[C@@H](NC(=O)[C@H](CC(=O)O)NC(=O)[C@H](CO)NC(=O)[C@@H](NC(=O)[C@H](Cc1ccccc1)NC(=O)[C@@H](NC(=O)CNC(=O)[C@H](CCC(=O)O)NC(=O)C(C)(C)NC(=O)[C@@H](N)Cc1cnc[nH]1)[C@@H](C)O)[C@@H](C)O)C(C)C)C(=O)N[C@@H](C)C(=O)N[C@@H](Cc1c[nH]c2ccccc12)C(=O)N[C@@H](CC(C)C)C(=O)N[C@H](C(=O)N[C@@H](CCCNC(=N)N)C(=O)NCC(=O)N[C@@H](CCCNC(=N)N)C(=O)NCC(=O)O)C(C)C,,Caucasian subjects,1.0 mg,,subjects with moderate AEs,12.5%
Clc1cc(Cl)cc([C@@H]2COC[C@H](C3CCCCC3)N2)c1,"shake-flask, 1-octanol/buffer",,pH 7.4,,logD,> 4.7
CCN1/C(=C/C(C)=O)Sc2ccc(F)cc21,,cynomolgus monkey,"oral, 30 mg/kg, 1 h post-dose",reference: pre-dose,heart rate change,100 ± 16.1%
Cc1cccc([C@H]2N[C@H](c3ccc4ccccc4c3)COC2(C)C)c1,"shake-flask, 1-octanol/buffer",,pH 7.4,,logD,> 4.7
O=C(NO)[C@H]1COC(c2c[nH]c3ccc(F)cc23)=N1,,octanol/buffer,pH 7.4,,logD,1.7
CC[C@@]1(O)C(=O)OCc2c1cc1n(c2=O)Cc2cc3c(CN(C)C)c(O)ccc3nc2-1,,patients,"intravenous, dose not given, 24 h, day 1",,cumulative urinary recovery,94.1 ± 29.5%
CN(C(=O)C(C)(C)c1cc(C(F)(F)F)cc(C(F)(F)F)c1)c1cnc(N2C[C@H]3COCCN3C[C@H]2CO)cc1-c1ccc(F)cc1[14CH3],item: total radioactivity,"human, plasma","oral, 120 mg",,%AUC extrapolated,10.5%
CCOC(=O)N1C[C@@H](c2ccc(Cl)cc2)N[C@H](c2cc(Cl)cc(Cl)c2)C1,"shake-flask, 1-octanol/buffer",,pH 7.4,,logD,> 4.7
Cc1c(C(=O)O)ccc2c3n(nc12)[C@@H]1[C@H](C3)N(CC2CC2)[C@@]2(C(=O)Nc3cc(Cl)ccc32)[C@H]1c1cccc(Cl)c1F,,"Göttingen minipig, female, plasma","oral, 2 mg/kg",,MRT total,19.6 h
COc1ccc2c(=O)n(C)c(-c3ccccc3)nc2c1,,"Sprague-Dawley rat, male, abdominal fat","oral, 30 mg/kg, 0.5 h",reference: abdominal fat over plasma,tissue/plasma ratio,30.1
Brc1cccc([C@@H]2COC[C@H](C3CCCCC3)N2)c1,"shake-flask, 1-octanol/buffer",,pH 7.4,,logD,> 4.7
Cc1ccc(C)c(N2C(=O)c3ccc(-c4nc(-c5ccc6[nH]nnc6c5)no4)cc3C2=O)c1,dynamic light scattering,buffer,20 µM,,hydrodynamic radius,2.64 nm
CN(C(=O)n1cnc(-c2ccc[n+]([O-])c2)c1)[C@H]1CC[C@H](O)CC1,,"Wistar rat, midbrain","oral, 10 mg/kg/day of BIA 10-2474, 4 h, repeated 5 days",,concentration,14.5 ± 1 ng/g
O=C(N[C@H](Cc1c[nH]c2ccccc12)C(=O)Nc1ccncc1)c1ccc(-c2ccc(F)c(C(F)(F)F)c2)cc1F,,"Swiss Webster mouse, female, liver","oral, 50 mg/kg, 8 h, 20% HPβCD vehicle",,concentration,50.8 µM
Cc1cc(NC2CCN(C(=O)OC3CCN(C(=O)/C=C/CN(C)C)C3)CC2)n2ncc(C(C)C)c2n1 (centres unmarked),"Phase I dose escalation CTCAE v4.0, item: urinary tract infection",patients with advanced solid tumours,"dose not given, QD dosing any grade",,patients with adverse event,2%
C[C@@H]1CCO[C@H]2Cn3cc(C(=O)NCc4ccc(F)cc4F)c(=O)c(O)c3C(=O)N12,"population PK, post-hoc","infants aged ≥1 months, 3 to <6 kg, plasma","oral, 10 mg dispersible tablet, steady state, geometric mean",,AUC(0-24),77100 ng·h/mL
C=CC(=O)N1CCC[C@@H](n2nc(-c3ccc(Oc4ccccc4)cc3)c3c(N)ncnc32)C1,,PBS,"100 µM, 23 h, pH 7.45, 37 °C, with: cysteine 10 mM",,cysteine adduct formation,99%
c1ccc2cc3ccccc3cc2c1,,fresh water,"12 (unit not given), 20 °C, S30-2 sampler, 30 µm",,log K(PDMS-water),3.91
O=C1NC(=O)C(c2ccccc2)(c2ccccc2)N1,,"human, serum",4 mg/kg every 8 h,,trough level,15 to 20 µg/mL
CCOc1c([C@H](C)n2nc(C)c3c(N)ncnc32)cc(Cl)c(F)c1[C@@H]1CNC(=O)C1,item: QTcF change ≤30 ms,previously treated B-cell malignancy,"oral, 15 mg once daily, baseline QTcF ≤450 ms",reference: baseline,patients,100%
CCc1nc(C(N)=O)c(Nc2ccc(N3CCC(N4CCN(C)CC4)CC3)c(OC)c2)nc1NC1CCOCC1,,"Japanese patients, plasma","oral, 200 mg, cycle 1 day 28, multiple doses, median",,Cmax,886 ng/mL
CC(=O)N(C)[C@H]1CCN(C(=O)c2cnc3c(c2)C[C@](C)(c2ccc(F)cc2)N3)C1,item: muscle damage,human,"oral, 15 mg once daily",,adverse event duration,10 days
C[C@@H](O[C@H]1OCCN(Cc2n[nH]c(=O)[nH]2)[C@H]1c1ccc(F)cc1)c1cc(C(F)(F)F)cc(C(F)(F)F)c1,,"human cells, human",,,CC50,> 50 µM
Cc1cc(C)c(CNC(=O)c2cc(Cl)c3c(c2C)O[C@@](C)([C@H]2CC[C@H](N(C)C)CC2)O3)c(=O)[nH]1,CTCAE v4.0,"human, relapsed/refractory NHL","oral, 200 mg once daily",,grade ≥3 drug-related TEAE patients,29.2%
O=C(CC1OCCN(Cc2ccccc2)C1=O)Nc1ccc2c(c1)OCCO2 (centres unmarked),,octanol/buffer,pH 7.4,,logD,2.45
Cn1cnc2c(F)c(Nc3ccc(Br)cc3Cl)c(C(=O)NOCCO)cc21,population PK model,"human, plasma","oral, sequential zero-first-order absorption, fasted",,absorption rate constant,1.05 h⁻¹
C[C@@H](N)C1CCN(S(=O)(=O)c2cccc3cnccc23)CC1,,healthy volunteers,"250 mg, fasted",,participants with photophobia,0%
CC(C)(C)c1ccc(O)c(CN(Cc2cc(C(C)(C)C)ccc2O)C2CCC(NC(N)=O)CC2)c1 (centres unmarked),,mouse plasma,"2000 ng/mL, 24 h, 25 °C, short-term storage",,recovery,93.56 ± 0.38%
COc1cc2c(cc1OC)CN(CCc1ccc(NC(=O)c3cccc4c(=O)c5cccc(OC)c5[nH]c34)cc1)CC2,,"Sprague Dawley rats, plasma","iv infusion, 0.009 mg/h/kg, 4 h",,free plasma concentration,0.02 ng/mL
Cc1cc(-c2nccc3c2ccn3CC(=O)Nc2ccc(-c3cnccn3)cn2)ccn1,,human,"15 mg once daily, multiple ascending dose",,subjects with breath odour,11.1%
Cc1ccc(C(=O)N(CCCN)C(c2nc3snc(C)c3c(=O)n2Cc2ccccc2)C(C)C)cc1 (centres unmarked),,human patients,"intravenous, 7 mg/day",,grade ≥3 fatigue patients,0%
C[C@@H](Oc1ccc(S(C)(=O)=O)cc1C(=O)N1C[C@@H]2C[C@]2(c2cc(C(F)(F)F)on2)C1)C(F)(F)F,,"healthy young humans, plasma","oral, 25 mg single dose",,%AUC extrapolated,35%
Cc1noc(C)c1-c1cc(C(O)(c2ccccn2)c2ccccn2)c2nc(C3CC3)[nH]c2c1,,"human patients, plasma","oral, 3 mg, cycle 1 day 8, monotherapy",,Ctau,131 ng/mL
CNC(=O)c1ccc(-c2cnc3ncc(Cc4ccc5ncccc5c4)n3n2)cc1F,,Japanese patients,"oral, 400 mg, grade 3/4",,Headache dose reduction/interruption,0%
O=C(O)CN1CCCN2CCN(Cc3ccccc3)CCCN(CC1)Cc1cccc(n1)C2,,64Cu complex,"2 h, 70 °C, with: DOTA excess",,intact complex,98%
CCOC(=O)N1C[C@@H](C2CCCCC2)N[C@@H]([C@H](C)CC)C1,"shake-flask, 1-octanol/buffer",,pH 7.4,,logD,> 4.7
[O]=[Co].[O]=[Co][O][Co]=[O],,"rat, female, faeces, 24-h collection","oral gavage, single, 300 mg/kg (220 mg Co/kg), day 1, vehicle 0.5% HPMC",reference: vehicle control subtracted,cobalt concentration,5340 µg/g
COc1cc(C(=O)N2CCC3(CC2)CC(=O)c2c(cnn2C(C)C)C3)cc(-c2ccc(C(=O)O)cc2)n1,item: direct LDL cholesterol,"human, fasting serum","30 mg every 12 h, day 13, adjusted geometric mean",reference: baseline and placebo,placebo-adjusted change from baseline,-2.2%
FC(F)(F)c1ccc(CNc2ccc(Cc3c[nH]c4ncc(Cl)cc34)cn2)cn1,item: Hypertension,"patients with advanced solid tumours, all cohorts","oral, 1000 mg/day, any grade",,treatment-related adverse events,6%
Clc1ccc(Nc2ncnc3ccc(-c4cccc(N5CCOCC5)c4)cc23)cc1,,human liver microsomes,,,CLint,20 µL/min/mg
O=C(Nc1ccc(OC(F)(F)Cl)cc1)c1cnc(N2CC[C@@H](O)C2)c(-c2ccn[nH]2)c1,"per treatment cycle, item: amylase increase",human patients,"oral, dose not given, 28 day cycle",,grade ≥3 event rate,0.1%
COc1cc(N2CCC3(CCN(C)CC3)CC2)ccc1Nc1ncc(Cl)c(Nc2ccccc2P(C)(C)=O)n1,population PK model,human,"oral, bootstrap median",,V1/F,346 L
O=C(Nc1nc2cccc(-c3ccc(CN4CCS(=O)(=O)CC4)cc3)n2n1)C1CC1,item: animal bite,human rheumatoid arthritis patients,"oral, 150 mg once daily, 4 weeks, regardless of relatedness",,treatment-emergent adverse events,6.7%
CC(C)(C(=O)N1CCOc2c(C#N)cncc2C1)C(F)F,item: ALT increased,human,"oral, 40 mg, CSF pharmacokinetic cohort",,subjects with adverse event,0%
NC[C@H](NC(=O)c1ccc(C#CC#Cc2ccccc2)cc1)C(=O)NO,,octanol/buffer,pH 7.4,,logD,> 4.5
C=CC(=O)NC1CCN(c2ncc3ncnc(Nc4ccc(Oc5ccc6c(c5)ncn6C)c(C)c4)c3n2)CC1,,"human, male, plasma","oral, 30 mg, adjusted geometric means",reference: fed over fasted,AUC0-∞ ratio,74.9%
CNCc1ccc(-c2[nH]c3cc(F)cc4c3c2CCNC4=O)cc1,item: any adverse event,human patients,"oral, 600 mg twice daily, grade 1",,patients with adverse event,23.1%
NC1(C(=O)N[C@@H](CCO)c2ccc(Cl)cc2)CCN(c2nc[nH]c3nccc2-3)CC1,,human mCRPC patients,"oral, twice daily, 4/7 days, any grade, treatment-related, with: enzalutamide 160 mg daily",,lower abdominal pain incidence,6.7%
C[Si](C)(C)O[Si](C)(C)O[Si](C)(C)C,,1-octanol/air,concentration not given,,enthalpy of phase change,-8.96 kcal/mol
Cc1ccc([C@@H]2O[C@H](CO)[C@@H](O)[C@H](O)[C@H]2O)cc1Cc1ccc(-c2ccc(F)cc2)s1,,Japanese type 2 diabetes patients,"100 mg, day 1, 24 h urine collection",reference: baseline,urinary magnesium excretion change,-18.3 mg
CN1C(=O)[C@@H](NC(=O)c2nnc(Cc3ccccc3)[nH]2)COc2cccnc21,,"human, both sexes","oral, single and repeated dosing, median",,Tmax,3 to 4 h
O=C(O)CSc1nnc(Br)n1-c1ccc(C2CC2)c2ccccc12,,"KM mouse, chronic hyperuricaemia model","dose not given, day 0",,body weight,25 g and 23.4 g and 26.4 g and 26.2 g and 24.2 g and 23.2 g
NC[C@@]1(CC(=O)O)[C@@H]2CC[C@H]3C[C@@H]2[C@@H]1C3,,"human, severe renal impairment, plasma",geometric mean,,unbound Cmax,394 ng/mL
C=CC(=O)Nc1cc(Nc2nccc(-c3cn(C)c4ccccc34)n2)c(OC)cc1N(C)CCN(C)C,UHPLC-MS/MS,"human, dried blood spot finger-prick","oral, 80 mg once daily",,trough concentration,208 ng/mL and 276 ng/mL and 269 ng/mL and 205 ng/mL and 254 ng/mL and 196 ng/mL and 222 ng/mL and 200 ng/mL

# Excerpt of the above:
SMILES,assay,test system,setting,scale,measurement,value
NC[C@@]1(CC(=O)O)[C@@H]2CC[C@H]3C[C@@H]2[C@@H]1C3,,"human, severe renal impairment, plasma",geometric mean,,unbound Cmax,394 ng/mL
O=C1NC(=O)C(c2ccccc2)(c2ccccc2)N1,,"human, serum",4 mg/kg every 8 h,,trough level,15 to 20 µg/mL
Cc1cc(NC2CCN(C(=O)OC3CCN(C(=O)/C=C/CN(C)C)C3)CC2)n2ncc(C(C)C)c2n1 (centres unmarked),"Phase I dose escalation CTCAE v4.0, item: urinary tract infection",patients with advanced solid tumours,"dose not given, QD dosing any grade",,patients with adverse event,2%
Cc1ccc(C)c(N2C(=O)c3ccc(-c4nc(-c5ccc6[nH]nnc6c5)no4)cc3C2=O)c1,dynamic light scattering,buffer,20 µM,,hydrodynamic radius,2.64 nm
O=C(O)CSc1nnc(Br)n1-c1ccc(C2CC2)c2ccccc12,,"KM mouse, chronic hyperuricaemia model","dose not given, day 0",,body weight,25 g and 23.4 g and 26.4 g and 26.2 g and 24.2 g and 23.2 g
O=C(N[C@H](Cc1c[nH]c2ccccc12)C(=O)Nc1ccncc1)c1ccc(-c2ccc(F)c(C(F)(F)F)c2)cc1F,,"Swiss Webster mouse, female, liver","oral, 50 mg/kg, 8 h, 20% HPβCD vehicle",,concentration,50.8 µM
O=C(O)CN1CCCN2CCN(Cc3ccccc3)CCCN(CC1)Cc1cccc(n1)C2,,64Cu complex,"2 h, 70 °C, with: DOTA excess",,intact complex,98%
C=CC(=O)Nc1cc(Nc2nccc(-c3cn(C)c4ccccc34)n2)c(OC)cc1N(C)CCN(C)C,UHPLC-MS/MS,"human, dried blood spot finger-prick","oral, 80 mg once daily",,trough concentration,208 ng/mL and 276 ng/mL and 269 ng/mL and 205 ng/mL and 254 ng/mL and 196 ng/mL and 222 ng/mL and 200 ng/mL
Cc1noc(C)c1-c1cc(C(O)(c2ccccn2)c2ccccn2)c2nc(C3CC3)[nH]c2c1,,"human patients, plasma","oral, 3 mg, cycle 1 day 8, monotherapy",,Ctau,131 ng/mL
